Experimental data from different studies.
Numbered parts are unrelated; each lists some results of a single study. Substitutions count along the parent as printed.
UniProt Q16539, sequence (whole entry, looked up): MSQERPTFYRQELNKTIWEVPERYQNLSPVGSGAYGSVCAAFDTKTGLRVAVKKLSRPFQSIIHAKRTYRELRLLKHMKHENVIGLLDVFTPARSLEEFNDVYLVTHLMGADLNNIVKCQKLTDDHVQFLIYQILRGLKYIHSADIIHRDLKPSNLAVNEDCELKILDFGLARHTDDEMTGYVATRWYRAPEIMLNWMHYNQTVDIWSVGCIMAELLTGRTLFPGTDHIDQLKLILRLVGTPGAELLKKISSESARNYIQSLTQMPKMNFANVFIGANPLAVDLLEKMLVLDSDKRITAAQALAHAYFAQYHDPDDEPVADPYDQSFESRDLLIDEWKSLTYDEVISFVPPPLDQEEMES
UniProt Q9HC98, sequence (whole entry, looked up): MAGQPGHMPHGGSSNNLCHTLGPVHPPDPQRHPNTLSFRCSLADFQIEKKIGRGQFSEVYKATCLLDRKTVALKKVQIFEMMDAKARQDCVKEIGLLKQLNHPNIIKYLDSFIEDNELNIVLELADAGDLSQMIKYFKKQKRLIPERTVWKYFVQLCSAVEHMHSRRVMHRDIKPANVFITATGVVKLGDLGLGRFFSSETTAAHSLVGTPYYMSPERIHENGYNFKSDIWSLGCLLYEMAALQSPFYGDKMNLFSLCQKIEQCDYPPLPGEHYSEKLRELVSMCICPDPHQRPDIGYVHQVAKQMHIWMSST
UniProt Q9H093, sequence (whole entry, looked up): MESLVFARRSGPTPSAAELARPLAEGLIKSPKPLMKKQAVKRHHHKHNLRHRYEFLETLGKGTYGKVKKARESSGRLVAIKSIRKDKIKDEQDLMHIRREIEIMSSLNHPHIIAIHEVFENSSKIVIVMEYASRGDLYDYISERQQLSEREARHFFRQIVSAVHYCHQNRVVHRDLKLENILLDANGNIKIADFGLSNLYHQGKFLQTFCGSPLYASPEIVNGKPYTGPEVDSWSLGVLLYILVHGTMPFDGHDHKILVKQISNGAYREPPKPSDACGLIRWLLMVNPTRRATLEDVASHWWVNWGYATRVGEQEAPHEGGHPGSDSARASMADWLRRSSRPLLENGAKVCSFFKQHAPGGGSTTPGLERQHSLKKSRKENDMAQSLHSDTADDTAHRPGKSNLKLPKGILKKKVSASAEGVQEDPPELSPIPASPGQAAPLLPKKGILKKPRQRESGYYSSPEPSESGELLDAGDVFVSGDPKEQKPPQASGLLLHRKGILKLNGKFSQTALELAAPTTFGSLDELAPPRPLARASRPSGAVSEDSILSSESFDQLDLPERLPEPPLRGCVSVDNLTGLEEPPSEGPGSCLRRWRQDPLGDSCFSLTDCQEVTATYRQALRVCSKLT
UniProt Q86UE8, sequence (whole entry, looked up): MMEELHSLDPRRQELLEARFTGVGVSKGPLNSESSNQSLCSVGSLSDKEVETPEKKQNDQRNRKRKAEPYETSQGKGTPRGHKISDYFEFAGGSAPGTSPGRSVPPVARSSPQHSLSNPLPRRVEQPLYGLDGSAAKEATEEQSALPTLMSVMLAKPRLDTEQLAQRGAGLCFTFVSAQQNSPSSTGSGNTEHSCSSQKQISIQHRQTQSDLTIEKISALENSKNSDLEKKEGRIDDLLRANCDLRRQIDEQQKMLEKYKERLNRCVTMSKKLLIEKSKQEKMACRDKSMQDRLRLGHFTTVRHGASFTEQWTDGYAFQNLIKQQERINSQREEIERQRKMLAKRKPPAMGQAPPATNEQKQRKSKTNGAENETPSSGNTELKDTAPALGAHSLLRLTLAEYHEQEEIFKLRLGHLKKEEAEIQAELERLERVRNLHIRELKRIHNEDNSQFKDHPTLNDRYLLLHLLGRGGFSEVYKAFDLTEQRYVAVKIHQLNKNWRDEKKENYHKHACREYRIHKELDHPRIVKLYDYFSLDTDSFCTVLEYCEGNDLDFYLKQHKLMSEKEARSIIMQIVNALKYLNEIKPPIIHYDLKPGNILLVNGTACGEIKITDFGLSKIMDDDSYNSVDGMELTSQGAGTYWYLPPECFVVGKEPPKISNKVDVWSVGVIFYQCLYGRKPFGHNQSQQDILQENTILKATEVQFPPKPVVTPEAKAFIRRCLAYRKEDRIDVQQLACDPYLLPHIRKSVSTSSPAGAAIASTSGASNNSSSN
UniProt Q86UX6, sequence (whole entry, looked up): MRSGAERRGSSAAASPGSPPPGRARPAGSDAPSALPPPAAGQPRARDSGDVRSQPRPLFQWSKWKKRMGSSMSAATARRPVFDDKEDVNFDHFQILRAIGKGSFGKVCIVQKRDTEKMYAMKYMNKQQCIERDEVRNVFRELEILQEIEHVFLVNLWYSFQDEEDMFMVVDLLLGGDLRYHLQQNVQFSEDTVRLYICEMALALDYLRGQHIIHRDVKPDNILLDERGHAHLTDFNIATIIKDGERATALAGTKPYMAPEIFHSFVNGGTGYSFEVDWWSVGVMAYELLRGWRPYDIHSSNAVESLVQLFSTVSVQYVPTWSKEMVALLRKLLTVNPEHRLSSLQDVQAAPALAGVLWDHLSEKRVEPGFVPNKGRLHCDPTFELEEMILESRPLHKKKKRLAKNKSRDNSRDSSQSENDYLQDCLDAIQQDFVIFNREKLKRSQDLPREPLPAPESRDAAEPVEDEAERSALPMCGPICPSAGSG
UniProt P42336, sequence (whole entry, unmodified, looked up): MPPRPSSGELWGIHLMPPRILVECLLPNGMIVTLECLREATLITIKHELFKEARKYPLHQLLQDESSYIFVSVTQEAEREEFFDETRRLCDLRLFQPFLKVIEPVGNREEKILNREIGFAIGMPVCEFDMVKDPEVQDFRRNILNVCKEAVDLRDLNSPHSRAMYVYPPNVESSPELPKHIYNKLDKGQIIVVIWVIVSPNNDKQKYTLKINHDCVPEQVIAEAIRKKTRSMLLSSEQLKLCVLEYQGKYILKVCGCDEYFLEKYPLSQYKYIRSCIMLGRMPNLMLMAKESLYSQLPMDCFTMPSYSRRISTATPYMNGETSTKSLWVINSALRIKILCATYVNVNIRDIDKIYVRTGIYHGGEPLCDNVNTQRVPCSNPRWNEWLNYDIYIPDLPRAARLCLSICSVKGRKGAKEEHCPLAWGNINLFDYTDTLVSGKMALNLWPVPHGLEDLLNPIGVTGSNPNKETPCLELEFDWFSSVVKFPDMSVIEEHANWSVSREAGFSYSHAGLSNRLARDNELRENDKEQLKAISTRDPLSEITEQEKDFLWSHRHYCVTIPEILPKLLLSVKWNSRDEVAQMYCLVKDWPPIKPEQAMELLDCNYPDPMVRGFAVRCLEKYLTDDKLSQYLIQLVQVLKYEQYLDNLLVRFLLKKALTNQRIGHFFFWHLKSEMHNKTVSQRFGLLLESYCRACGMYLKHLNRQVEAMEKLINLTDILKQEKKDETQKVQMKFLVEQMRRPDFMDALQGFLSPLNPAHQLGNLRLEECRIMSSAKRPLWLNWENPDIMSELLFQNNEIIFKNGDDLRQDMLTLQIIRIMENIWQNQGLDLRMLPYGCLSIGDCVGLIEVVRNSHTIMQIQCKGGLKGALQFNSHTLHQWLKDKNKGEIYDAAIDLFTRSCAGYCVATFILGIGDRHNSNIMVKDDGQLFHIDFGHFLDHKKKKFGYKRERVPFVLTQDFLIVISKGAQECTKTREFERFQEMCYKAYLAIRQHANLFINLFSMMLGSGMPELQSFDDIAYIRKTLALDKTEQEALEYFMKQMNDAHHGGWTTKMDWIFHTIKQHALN
UniProt Q9C098, sequence (whole entry, looked up): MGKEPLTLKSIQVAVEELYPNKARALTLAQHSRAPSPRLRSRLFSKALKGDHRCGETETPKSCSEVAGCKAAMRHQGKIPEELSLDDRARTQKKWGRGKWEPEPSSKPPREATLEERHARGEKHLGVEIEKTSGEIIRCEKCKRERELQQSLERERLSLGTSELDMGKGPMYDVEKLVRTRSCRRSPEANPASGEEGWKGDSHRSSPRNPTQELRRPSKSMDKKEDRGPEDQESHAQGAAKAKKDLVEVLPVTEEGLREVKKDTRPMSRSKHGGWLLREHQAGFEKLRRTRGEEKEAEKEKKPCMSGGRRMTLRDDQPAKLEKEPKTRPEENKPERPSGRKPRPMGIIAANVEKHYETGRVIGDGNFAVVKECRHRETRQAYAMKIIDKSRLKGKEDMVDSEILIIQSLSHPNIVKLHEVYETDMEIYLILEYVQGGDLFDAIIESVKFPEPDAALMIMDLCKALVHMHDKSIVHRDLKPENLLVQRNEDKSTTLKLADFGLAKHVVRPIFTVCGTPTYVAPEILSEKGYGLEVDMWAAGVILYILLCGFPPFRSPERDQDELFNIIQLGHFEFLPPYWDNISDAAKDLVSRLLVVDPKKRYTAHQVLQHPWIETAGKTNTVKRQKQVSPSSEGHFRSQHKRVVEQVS
UniProt P49761, sequence (whole entry, looked up): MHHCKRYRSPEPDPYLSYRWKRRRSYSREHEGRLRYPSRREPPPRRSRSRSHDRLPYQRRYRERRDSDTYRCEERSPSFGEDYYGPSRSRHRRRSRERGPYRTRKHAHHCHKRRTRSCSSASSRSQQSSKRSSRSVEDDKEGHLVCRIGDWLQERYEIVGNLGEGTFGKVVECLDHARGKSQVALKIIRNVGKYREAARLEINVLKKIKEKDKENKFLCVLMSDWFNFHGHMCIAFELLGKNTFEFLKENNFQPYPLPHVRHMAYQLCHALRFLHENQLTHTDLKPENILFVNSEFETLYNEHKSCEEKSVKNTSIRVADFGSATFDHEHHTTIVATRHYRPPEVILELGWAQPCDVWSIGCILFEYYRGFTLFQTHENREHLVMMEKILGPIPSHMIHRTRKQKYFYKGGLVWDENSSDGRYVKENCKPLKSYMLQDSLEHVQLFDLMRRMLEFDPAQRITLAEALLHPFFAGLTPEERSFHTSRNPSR

Study 1
Structure (SMILES): O=C1NC(=O)/C(=C/c2ccc3nccnc3c2)S1
Effect on: enzyme activity
Action: inhibitor
Concentration: 0.5 µM
Reference: control
It gave 89.9% for remaining activity (MAP/microtubule affinity-regulating kinase 4 (MARK4, Homo sapiens, UniProt Q96L34)).
Discoidin domain-containing receptor 2 (DDR2, Homo sapiens, UniProt Q16832) — remaining activity: 93.4%.
The remaining activity was 106% (cGMP-dependent protein kinase 2 (PRKG2, Homo sapiens, UniProt Q13237)).
For Serine/threonine-protein kinase MRCK beta (CDC42BPB, Homo sapiens, UniProt Q9Y5S2): remaining activity read 91.3%.
For Mitogen-activated protein kinase 14 (MAPK14, Homo sapiens, UniProt Q16539): remaining activity read 92.9%.
Dual specificity protein kinase CLK3 (CLK3, Homo sapiens, UniProt P49761) — remaining activity: 80.8%.
The remaining activity was 97.3% (Serine/threonine-protein kinase Nek3 (NEK3, Homo sapiens, UniProt P51956)).
It gave 95.2% for remaining activity (Serine/threonine-protein kinase tousled-like 2 (TLK2, Homo sapiens, UniProt Q86UE8)).
The remaining activity was 90.7% (Cyclin-dependent kinase 1, with cyclin A (CDK1, Homo sapiens, UniProt P06493)).
For Myosin-IIIb (MYO3B, Homo sapiens, UniProt Q8WXR4): remaining activity read 83.8%.
For Serine/threonine-protein kinase MARK2 (MARK2, Homo sapiens, UniProt Q7KZI7): remaining activity read 93%.
Rho-associated protein kinase 1 (ROCK1, Homo sapiens, UniProt Q13464) — remaining activity: 94%.
It gave 91.2% for remaining activity (Hepatocyte growth factor receptor (MET, Homo sapiens, UniProt P08581)).
The remaining activity was 47.5% (Dual specificity protein kinase CLK4 (CLK4, Homo sapiens, UniProt Q9HAZ1)).

Study 2
Variant: Y53N
Target: ABI1, truncated, D143A, DHFR fusion (Arabidopsis thaliana)
Technique: DHFR PCA, deep sequencing
Sample: yeast
Setting: methotrexate growth selection, single substitutions
Reference: wild-type fitted maximum
Reading: higher = stronger binding
Starting sequence: PYL1, truncated, DHFR fusion (Arabidopsis thaliana); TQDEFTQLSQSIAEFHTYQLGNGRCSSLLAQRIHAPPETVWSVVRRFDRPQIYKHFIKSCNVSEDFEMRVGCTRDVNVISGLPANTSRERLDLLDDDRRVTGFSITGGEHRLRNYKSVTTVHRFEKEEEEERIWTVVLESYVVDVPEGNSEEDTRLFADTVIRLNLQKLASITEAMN
with: (+)-ABA 0.11 µM — “relative binding score”: -4.96%.
For with: (+)-ABA 710 µM: “relative binding score” read 45.9%.
The “relative binding score” was 71.3% (with: (+)-ABA 2500 µM).
with: (+)-ABA 0.39 µM — “relative binding score”: -9.64%.
The “relative binding score” was -13.1% (with: (+)-ABA 4.8 µM).
It gave 32.8% for “relative binding score” (with: (+)-ABA 200 µM).

Study 3
Structure (SMILES): c1ccc(N2CCN(Cc3nc4ccccc4[nH]3)CC2)nc1
Technique: competition with immobilised ligand
Concentration: 1 µM
For Serine/threonine-protein kinase PAK 5 (PAK5, Homo sapiens, UniProt Q9P286); cell-free assay: remaining binding read 100%.
For Tyrosine-protein kinase ABL1, non-phosphorylated (ABL1, Homo sapiens, UniProt P00519); binding: remaining binding read 80%.
Serine/threonine-protein kinase Nek6 (NEK6, Homo sapiens, UniProt Q9HC98); binding — remaining binding: 100%.
Glycogen synthase kinase-3 alpha (GSK3A, Homo sapiens, UniProt P49840); cell-free assay — remaining binding: 66%.
It gave 100% for remaining binding (Serine/threonine-protein kinase B-raf (BRAF, Homo sapiens, UniProt P15056, V600E); cell-free assay).
Ephrin type-B receptor 3 (EPHB3, Homo sapiens, UniProt P54753); cell-free assay — remaining binding: 100%.
For Homeodomain-interacting protein kinase 3 (HIPK3, Homo sapiens, UniProt Q9H422); binding: remaining binding read 100%.
The remaining binding was 100% (Serine/threonine-protein kinase 32C (STK32C, Homo sapiens, UniProt Q86UX6); binding).
NUAK family SNF1-like kinase 2 (NUAK2, Homo sapiens, UniProt Q9H093); binding — remaining binding: 100%.
Interleukin-1 receptor-associated kinase 3 (IRAK3, Homo sapiens, UniProt Q9Y616); binding — remaining binding: 100%.
It gave 100% for remaining binding (Serine/threonine-protein kinase 32B (STK32B, Homo sapiens, UniProt Q9NY57); binding).
It gave 100% for remaining binding (Tyrosine-protein kinase Fes/Fps (FES, Homo sapiens, UniProt P07332); cell-free assay).
It gave 91% for remaining binding (Serine/threonine-protein kinase D2 (PRKD2, Homo sapiens, UniProt Q9BZL6); binding).
It gave 93% for remaining binding (Serine/threonine-protein kinase DCLK3 (DCLK3, Homo sapiens, UniProt Q9C098); binding).
Tyrosine-protein kinase SYK (SYK, Homo sapiens, UniProt P43405); cell-free assay — remaining binding: 100%.
Myosin light chain kinase (MYLK3, Homo sapiens, UniProt Q32MK0); binding — remaining binding: 100%.
For Phosphatidylinositol 4,5-bisphosphate 3-kinase catalytic subunit alpha isoform (PIK3CA, Homo sapiens, UniProt P42336, H1047L); cell-free assay: remaining binding read 100%.

Other studies, line by line
Technique: cross-linking MS
TIMM13: TIMM13 (Homo sapiens, UniProt Q9Y5L4)
For `TIMM8B (Homo sapiens, UniProt Q9Y5J9)`, cross-linked residues read “K43 to K64” (TIMM13; cell fractions; with: DSSO).
`RRP8 (Homo sapiens, UniProt O43159)`: cross-linked residues “S80 to K118” (HNRNPA3 (Homo sapiens, UniProt P51991); cell fractions; with: DSSO).
For `PPIB (Homo sapiens, UniProt P23284)`, interaction screen read “cross-linked” (UTRN (Homo sapiens, UniProt P46939); hits only).
Under cross-linked residues, `TIMM8A (Homo sapiens, UniProt O60220)` is recorded as “K50 to K64” (TIMM13; cell fractions; with: DSSO).

A few entries again (study 1):
Discoidin domain-containing receptor 2 (DDR2, Homo sapiens, UniProt Q16832) — remaining activity: 93.4%.
The remaining activity was 106% (cGMP-dependent protein kinase 2 (PRKG2, Homo sapiens, UniProt Q13237)).
For Serine/threonine-protein kinase MRCK beta (CDC42BPB, Homo sapiens, UniProt Q9Y5S2): remaining activity read 91.3%.
For Mitogen-activated protein kinase 14 (MAPK14, Homo sapiens, UniProt Q16539): remaining activity read 92.9%.
Dual specificity protein kinase CLK3 (CLK3, Homo sapiens, UniProt P49761) — remaining activity: 80.8%.
The remaining activity was 97.3% (Serine/threonine-protein kinase Nek3 (NEK3, Homo sapiens, UniProt P51956)).
It gave 95.2% for remaining activity (Serine/threonine-protein kinase tousled-like 2 (TLK2, Homo sapiens, UniProt Q86UE8)).
